{"sequences": {"note": "Protein sequences, listed by entry. Tags and fused reporters are not part of them.", "UniProt Q5U3Y7, whole entry": "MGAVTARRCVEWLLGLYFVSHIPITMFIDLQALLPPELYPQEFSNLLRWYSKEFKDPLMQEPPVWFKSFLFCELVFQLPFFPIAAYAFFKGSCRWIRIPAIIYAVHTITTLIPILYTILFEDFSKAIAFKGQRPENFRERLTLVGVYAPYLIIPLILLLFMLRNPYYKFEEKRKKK", "UniProt P21554, whole entry": "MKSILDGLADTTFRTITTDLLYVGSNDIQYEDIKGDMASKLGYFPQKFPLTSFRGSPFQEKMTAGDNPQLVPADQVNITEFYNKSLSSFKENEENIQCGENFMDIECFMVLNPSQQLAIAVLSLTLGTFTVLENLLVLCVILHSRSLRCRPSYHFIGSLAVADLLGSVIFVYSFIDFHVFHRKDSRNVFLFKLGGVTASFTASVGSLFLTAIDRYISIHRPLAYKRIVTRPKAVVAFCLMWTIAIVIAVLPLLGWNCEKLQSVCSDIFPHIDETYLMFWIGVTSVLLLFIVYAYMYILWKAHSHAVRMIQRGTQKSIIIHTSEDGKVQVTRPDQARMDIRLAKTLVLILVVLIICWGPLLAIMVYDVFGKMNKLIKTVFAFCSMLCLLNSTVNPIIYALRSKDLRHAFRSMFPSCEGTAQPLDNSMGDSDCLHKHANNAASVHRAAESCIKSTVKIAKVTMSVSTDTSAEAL", "UniProt P47936, whole entry": "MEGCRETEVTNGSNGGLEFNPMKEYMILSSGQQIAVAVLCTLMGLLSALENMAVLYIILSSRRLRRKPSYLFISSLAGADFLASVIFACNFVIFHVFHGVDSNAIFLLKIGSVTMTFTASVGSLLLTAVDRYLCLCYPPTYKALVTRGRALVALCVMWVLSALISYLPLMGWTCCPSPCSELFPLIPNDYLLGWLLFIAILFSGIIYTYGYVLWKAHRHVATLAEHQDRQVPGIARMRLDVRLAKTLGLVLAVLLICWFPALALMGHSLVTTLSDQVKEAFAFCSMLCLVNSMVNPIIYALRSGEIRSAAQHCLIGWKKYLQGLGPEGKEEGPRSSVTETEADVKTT", "UniProt P08246, whole entry, looked up": "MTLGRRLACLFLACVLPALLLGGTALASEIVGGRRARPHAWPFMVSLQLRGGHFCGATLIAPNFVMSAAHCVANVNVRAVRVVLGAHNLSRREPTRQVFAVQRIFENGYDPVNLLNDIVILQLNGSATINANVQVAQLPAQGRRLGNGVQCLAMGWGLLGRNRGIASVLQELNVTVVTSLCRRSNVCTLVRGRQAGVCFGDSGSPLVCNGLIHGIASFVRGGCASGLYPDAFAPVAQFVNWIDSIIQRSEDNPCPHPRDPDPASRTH", "UniProt P34969, whole entry": "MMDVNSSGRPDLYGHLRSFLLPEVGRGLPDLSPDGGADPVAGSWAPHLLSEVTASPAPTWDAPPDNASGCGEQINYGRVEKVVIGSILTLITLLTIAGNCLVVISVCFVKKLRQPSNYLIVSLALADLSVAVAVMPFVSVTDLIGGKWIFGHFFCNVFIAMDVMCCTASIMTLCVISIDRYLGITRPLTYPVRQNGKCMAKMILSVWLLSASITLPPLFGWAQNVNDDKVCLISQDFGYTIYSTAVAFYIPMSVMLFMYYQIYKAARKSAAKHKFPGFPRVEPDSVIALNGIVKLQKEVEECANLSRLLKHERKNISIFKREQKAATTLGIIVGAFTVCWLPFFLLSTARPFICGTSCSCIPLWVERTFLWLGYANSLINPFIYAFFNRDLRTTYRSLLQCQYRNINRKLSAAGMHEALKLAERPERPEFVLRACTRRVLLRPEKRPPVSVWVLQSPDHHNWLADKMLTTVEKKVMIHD", "UniProt P63252, whole entry": "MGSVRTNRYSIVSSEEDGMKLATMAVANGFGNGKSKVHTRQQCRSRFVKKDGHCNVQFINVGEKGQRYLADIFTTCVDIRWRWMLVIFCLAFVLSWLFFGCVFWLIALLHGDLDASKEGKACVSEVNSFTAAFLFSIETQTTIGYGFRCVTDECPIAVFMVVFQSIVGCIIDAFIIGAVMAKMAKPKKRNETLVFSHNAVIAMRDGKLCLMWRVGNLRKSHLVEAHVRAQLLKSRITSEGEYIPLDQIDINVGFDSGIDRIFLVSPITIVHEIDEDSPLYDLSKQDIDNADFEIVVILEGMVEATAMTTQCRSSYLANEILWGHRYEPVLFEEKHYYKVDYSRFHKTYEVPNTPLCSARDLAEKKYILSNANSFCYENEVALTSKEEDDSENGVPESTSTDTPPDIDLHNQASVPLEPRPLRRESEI"}, "data": "Measured values from different studies", "Tmem97": "Sigma intracellular receptor 2 (Tmem97, Rattus norvegicus, UniProt Q5U3Y7)", "CNR1": "Cannabinoid receptor 1 (CNR1, Homo sapiens, UniProt P21554)", "Oprk1": "Kappa-type opioid receptor (Oprk1, Mus musculus, UniProt P33534)", "note": "Lines come from different studies, so protocols differ. Values joined by “and” are separate records of one study, mostly repeats; a detail may differ."}
{"SMILES": "CC1(C)Oc2cc(C(=O)c3csc4ccccc34)cc(O)c2[C@@H]2C[C@H](O)CC[C@H]21", "tested on": "Cnr2 (Mus musculus, UniProt P47936)", "test": "binding, [3H]CP-55,940 radioligand binding", "system": "HEK293 cell membranes", "scale": "reference: Ki rat CB1 over Ki mouse CB2", "measurement": "selectivity ratio", "value": "37 fold"}
{"SMILES": "O=C(c1ccc(Br)cc1)C1CCN([C@@H]2Cc3ccccc3C[C@H]2O)CC1 (relative stereo)", "tested on": "Tmem97", "test": "binding", "scale": "reference: Ki sigma-2 over Ki VAChT", "measurement": "selectivity ratio", "value": 2370}
{"SMILES": "O=C(NC1CCN(c2ncnc3c2nc(-c2ccccc2Cl)n3-c2ccc(Cl)cc2)CC1)C1CCCC1", "tested on": "CNR1", "test": "binding, radioligand displacement", "system": "CHO cell membranes", "setting": "added: [3H]CP55940", "scale": "reference: Ki CB2 over Ki CB1", "measurement": "selectivity ratio", "value": 40}
{"SMILES": "O=C(N[C@@H]1CC[C@@]2(O)[C@H]3Cc4ccc(O)c5c4[C@@]2(CCN3CC2CC2)[C@H]1O5)c1ccnc(Cl)c1", "tested on": "Oprk1", "test": "radioligand binding", "system": "CHO cell membranes", "setting": "added: [3H]diprenorphine", "scale": "reference: Ki mu receptor over Ki kappa receptor", "measurement": "selectivity ratio", "value": 0.67}
{"SMILES": "C[C@H](CS)C(=O)N[C@@H](Cc1c[nH]c2ccccc12)C(=O)O", "tested on": "Escherichia coli", "system": "IMP-1 producing", "setting": "25 µM, added: meropenem", "measurement": "MIC of meropenem", "value": "32 µg/mL"}
{"SMILES": "[N-]=[N+]=CC(=O)[C@H](Cc1cccc([N+](=O)[O-])c1)NC(=O)OCc1ccccc1", "tested on": "Neutrophil elastase (ELANE, Homo sapiens, UniProt P08246)", "setting": "highest concentration 40 µM", "scale": "reference: elastase IC50 over streptopain IC50", "measurement": "selectivity ratio", "value": "> 21 fold"}
{"SMILES": "N#Cc1cc(C(=O)N[C@@H]2CC[C@@]3(O)[C@H]4Cc5ccc(O)c6c5[C@@]3(CCN4CC3CC3)[C@H]2O6)ccn1", "tested on": "Oprk1", "test": "radioligand binding", "system": "CHO cell membranes", "setting": "added: [3H]diprenorphine", "scale": "reference: Ki mu receptor over Ki kappa receptor", "measurement": "selectivity ratio", "value": "9.62 and 9.6"}
{"SMILES": "CC(CCN[C@H](CN[C@H](CO)CN1CCC[C@H]1CN[C@H](CN)c1ccccc1)c1ccccc1)c1ccccc1 (stereo partly shown)", "tested on": "Klebsiella pneumoniae", "test": "bacterial growth", "setting": "compound alone", "measurement": "IC90", "value": "> 24 µM"}
{"SMILES": "COc1ccc(CN[C@@H]2CO[C@H](C(c3ccccc3)c3ccccc3)C[C@H]2O)cc1", "tested on": "HTR7 (Homo sapiens, UniProt P34969)", "test": "radioligand binding", "setting": "10 µM, added: [3H]LSD", "measurement": "inhibition", "value": "15.6%"}
{"SMILES": "COc1ccc(Sc2cc(C(=O)N3Cc4ccccc4C3)ccc2O)cc1OC", "tested on": "HSP90AA1 (Homo sapiens, UniProt P07900)", "test": "fluorescence polarization", "setting": "added: FITC-geldanamycin", "scale": "reference: IC50 Hsp90beta over Hsp90alpha", "measurement": "selectivity ratio", "value": "~22 fold"}
{"SMILES": "CC1CCN(Cc2cc(Cl)c3cccnc3c2O)CC1", "tested on": "KCNJ2 (Homo sapiens, UniProt P63252)", "test": "inhibitor, thallium flux", "scale": "reference: Kir7.1 over KCNJ2", "measurement": "selectivity ratio", "value": "> 7 fold"}
{"SMILES": "NC[C@@H](NC[C@@H]1CCCN1C[C@@H](CO)NC[C@@H](NCCc1ccc(-c2ccccc2)cc1)c1ccccc1)c1ccccc1", "tested on": "Klebsiella pneumoniae", "test": "bacterial growth", "setting": "8 µM, fold shift of IC90, added: amikacin", "measurement": "potentiation of amikacin", "value": "1 fold"}
{"SMILES": "COCCCNc1cc(C(=O)NC2CC3CCC(C2)N3c2ccc(C(=O)NCc3ccccc3)cn2)ccc1C(N)=O (stereo not shown)", "tested on": "Hsp90, Plasmodium falciparum", "scale": "reference: human Hsp90 Ki over P. falciparum Hsp90 Ki", "measurement": "selectivity ratio", "value": "9.6 fold"}
{"SMILES": "O=C(c1ccccc1)C1CCN([C@@H]2Cc3ccccc3C[C@H]2O)CC1 (relative stereo)", "tested on": "Tmem97", "test": "binding", "scale": "reference: Ki sigma-2 over Ki VAChT", "measurement": "selectivity ratio", "value": 74.4}
{"SMILES": "Cc1cc(C(=O)N[C@@H]2CC[C@@]3(O)[C@H]4Cc5ccc(O)c6c5[C@@]3(CCN4CC3CC3)[C@H]2O6)ccn1", "tested on": "Oprk1", "test": "radioligand binding", "system": "CHO", "setting": "added: [3H]diprenorphine", "scale": "reference: Ki δ over Ki κ", "measurement": "selectivity ratio", "value": 155}
{"SMILES": "NCCNCCSc1ccccc1", "test": "spectrophotometry", "setting": "pH 5.4", "measurement": "pKa", "value": 5.63}
{"SMILES": "O=C(NC1CCN(c2ncnc3c2nc(-c2ccccc2Cl)n3-c2ccc(Cl)cc2)CC1)C1CCCCC1", "tested on": "CNR1", "test": "binding, radioligand displacement", "system": "CHO cell membranes", "setting": "added: [3H]CP55940", "scale": "reference: Ki CB2 over Ki CB1", "measurement": "selectivity ratio", "value": 250}
{"SMILES": "COc1cc(C(=O)N[C@@H]2CC[C@@]3(O)[C@H]4Cc5ccc(O)c6c5[C@@]3(CCN4CC3CC3)[C@H]2O6)ccn1", "tested on": "Oprk1", "test": "radioligand binding", "system": "CHO", "setting": "added: [3H]diprenorphine", "scale": "reference: Ki δ over Ki κ", "measurement": "selectivity ratio", "value": 349}
{"SMILES": "[11CH3]Nc1ccc(C(=O)C2CCN(C3Cc4ccccc4CC3O)CC2)cc1 (single isomer, unassigned)", "system": "Sprague-Dawley rat, spleen", "setting": "intravenous, dose not given, 5 min", "measurement": "radioactivity uptake", "value": "1.19 %ID/g"}
